Experimental data of several laboratories.
Parts stem from different laboratories: compare values within a part only.

Set 1
Target: Prothrombin, mature alpha-thrombin (F2, Homo sapiens, UniProt P00734)
Method: aptamer microarray, sandwich
Molecule type: DNA with 2'F-ANA
Sample: in vitro
Tested at: 200 nM
Notes: whole 15-mer aptamer, many near background
Together with: Cy3 exosite-II aptamer, 400 nM
Direction: higher = stronger binding
Strand: GGTTGGTGTGGTTGG
`2'F-ANA at 3 4 5 6 7 10 14`: “mean fluorescence intensity” 54.2 a.u.
`2'F-ANA at 1 3 6 7 12 13 15`: “mean fluorescence intensity” 438 a.u.
For `2'F-ANA at 1 2 3 8 10 11 14`, “mean fluorescence intensity” read 53.8 a.u.
`2'F-ANA at 2 4 5 6 10 14` — result for “mean fluorescence intensity”: 53.8 a.u.
Under “mean fluorescence intensity”, `2'F-ANA at 2 4 6 7 8 9 11 12 14 15` is recorded as 101 a.u.
`2'F-ANA at 1 2 3 4 7 8 10 12 13` — result for “mean fluorescence intensity”: 66.1 a.u.
`2'F-ANA at 2 4 5 7 10 12 13 14 15`: “mean fluorescence intensity” 45.5 a.u.
`2'F-ANA at 1 2 3 4 5 6 11 14 15`: “mean fluorescence intensity” 66.3 a.u.
Under “mean fluorescence intensity”, `2'F-ANA at 1 4 5 6 9 10 12 14` is recorded as 45 a.u.
`2'F-ANA at 1 2 3 6 8 10 13 14`: “mean fluorescence intensity” 49.6 a.u.
For `2'F-ANA at 1 5 10 11 12 13 14`, “mean fluorescence intensity” read 49.8 a.u.
`2'F-ANA at 1 2 3 4 5 10 12 14 15` — result for “mean fluorescence intensity”: 55.1 a.u.
`2'F-ANA at 2 3 4 10 11 14 15` — result for “mean fluorescence intensity”: 178 a.u.
For `2'F-ANA at 1 3 4 5 6 9 10 12 13 14 15`, “mean fluorescence intensity” read 66 a.u.
`2'F-ANA at 1 6 7 9 11 14 15` — result for “mean fluorescence intensity”: 53.3 a.u.
`2'F-ANA at 3 4 5 7 8 9 12 13 14 15` — result for “mean fluorescence intensity”: 52.8 a.u.
`2'F-ANA at 8 9 10 11 13 15`: “mean fluorescence intensity” 120 a.u.
`2'F-ANA at 1 2 8 9 10 12 13 15`: “mean fluorescence intensity” 68.4 a.u.
`2'F-ANA at 1 3 5 6 8 9 10 11 12` — result for “mean fluorescence intensity”: 53 a.u.
`2'F-ANA at 3 5 7 8 10 11 12 13` — result for “mean fluorescence intensity”: 112 a.u.
Under “mean fluorescence intensity”, `2'F-ANA at 4 7 9 10 11 12 13 14 15` is recorded as 60.7 a.u.
Under “mean fluorescence intensity”, `2'F-ANA at 1 2 4 5 7 8 11 12 13 15` is recorded as 72.3 a.u.
`2'F-ANA at 1 4 8 9 10 13 14`: “mean fluorescence intensity” 51 a.u.
For `2'F-ANA at 1 3 6 8 10 12`, “mean fluorescence intensity” read 119 a.u.

Set 2
Target: Sal-like protein 4, full length isoform A (SALL4, Homo sapiens, UniProt Q9UJQ4, residues 1-1053)
Sequence of UniProt Q9UJQ4 (whole entry, looked up): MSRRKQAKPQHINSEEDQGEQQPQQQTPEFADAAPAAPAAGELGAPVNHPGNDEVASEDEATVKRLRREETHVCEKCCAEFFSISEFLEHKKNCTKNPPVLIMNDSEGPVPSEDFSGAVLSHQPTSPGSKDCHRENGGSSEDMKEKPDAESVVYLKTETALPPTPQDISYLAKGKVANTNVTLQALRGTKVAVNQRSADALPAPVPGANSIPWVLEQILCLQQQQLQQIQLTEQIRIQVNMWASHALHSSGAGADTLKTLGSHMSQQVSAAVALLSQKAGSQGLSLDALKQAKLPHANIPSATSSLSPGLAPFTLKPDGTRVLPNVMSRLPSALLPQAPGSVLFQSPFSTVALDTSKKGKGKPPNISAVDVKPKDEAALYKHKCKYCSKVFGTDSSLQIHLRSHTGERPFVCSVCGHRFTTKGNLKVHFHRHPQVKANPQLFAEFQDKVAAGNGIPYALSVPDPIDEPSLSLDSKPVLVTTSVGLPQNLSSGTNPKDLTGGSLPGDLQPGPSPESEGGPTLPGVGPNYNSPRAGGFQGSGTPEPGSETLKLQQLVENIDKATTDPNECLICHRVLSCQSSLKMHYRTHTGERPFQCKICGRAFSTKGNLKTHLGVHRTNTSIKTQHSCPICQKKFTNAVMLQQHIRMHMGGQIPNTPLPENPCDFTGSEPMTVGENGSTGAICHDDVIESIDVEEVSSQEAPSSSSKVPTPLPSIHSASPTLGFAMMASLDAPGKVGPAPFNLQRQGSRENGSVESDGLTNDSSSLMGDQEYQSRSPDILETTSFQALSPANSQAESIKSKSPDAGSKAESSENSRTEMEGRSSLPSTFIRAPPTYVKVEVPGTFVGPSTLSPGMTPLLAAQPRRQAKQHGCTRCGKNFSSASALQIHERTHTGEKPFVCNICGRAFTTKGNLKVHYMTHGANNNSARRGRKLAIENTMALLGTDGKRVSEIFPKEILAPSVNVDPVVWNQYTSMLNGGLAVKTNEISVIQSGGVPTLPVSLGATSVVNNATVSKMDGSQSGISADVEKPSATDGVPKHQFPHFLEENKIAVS
Method: universal PBM
Molecule type: double-stranded DNA, one strand shown
Sample: in vitro
Tested at: 600 nM
Notes: 8-mer, flanks averaged, mean of replicates
Direction: higher = stronger binding
For `AACTTGGC`, the E-score was -0.0779.
`GTGATCAA` gave an E-score of 0.0683.
`ATAGCAAG` gave an E-score of 0.235.
`AGACACAC` has an E-score of -0.157.
`CACTCCGG` has an E-score of -0.169.
With `TCGGATCA` the E-score was 0.133.
For `GGAGCACC`, the E-score was -0.299.
For `CATGCGGC`, the E-score was -0.193.
`TGCTGAAA` gave an E-score of 0.0464.
`TGTTGTAA` has an E-score of 0.267.
For `ATTGTAAG`, the E-score was 0.254.
`ATATAAAA` gave an E-score of 0.343.
For `AAGACGCT`, the E-score was -0.036.
The E-score of `GATATTGC` is reported as 0.237.
For `CGCGGCCA`, the E-score was -0.282.
`GTCTCGAA` gave an E-score of 0.0498.
The E-score of `GAGATCAC` is reported as -0.111.
`CGGAATGC` gave an E-score of -0.187.
For `CGAGGGGC`, the E-score was -0.358.
`ACGGCATC` has an E-score of -0.151.
`ACCGAGGG` has an E-score of -0.397.
The E-score of `GACATAGC` is reported as 0.106.
`CTGAGACA` has an E-score of -0.0873.
The E-score of `CTGTGAGA` is reported as -0.0467.
For `CGACCTCA`, the E-score was -0.143.

Set 3
Target: Histone acetyltransferase KAT6A, both winged helices, GST fusion (KAT6A, Homo sapiens, UniProt Q92794, residues 1-181)
Method: protein binding microarray
Molecule type: double-stranded DNA, one strand shown
Sample: in vitro
Tested at: not given
Notes: 8-mer, flanks averaged, mean of 2 arrays, mostly near background
Baseline: not given
Direction: higher = stronger binding
Target sequence (chain): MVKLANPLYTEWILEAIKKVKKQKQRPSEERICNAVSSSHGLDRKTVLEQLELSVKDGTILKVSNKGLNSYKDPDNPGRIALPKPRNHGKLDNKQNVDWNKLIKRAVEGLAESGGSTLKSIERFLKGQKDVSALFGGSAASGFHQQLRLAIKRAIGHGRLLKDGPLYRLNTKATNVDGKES
`AACTGTGA` gave an E-score of 0.0474.
`GCTCGGAC` gave an E-score of 0.118.
`AGCGGTCA` gave an E-score of 0.234.
`CCACGCTA` gave an E-score of -0.0468.
`ACTATCCA` gave an E-score of -0.0302.
With `CGAGCTAG` the E-score was 0.0209.
For `AGCGTGAC`, the E-score was 0.145.
`TTCAAAAA` has an E-score of -0.101.
The E-score of `AAGAGACG` is reported as 0.0803.
`ACAATGCT` has an E-score of -0.155.
`CGAAGAAC` has an E-score of -0.0161.
For `TCGGTAAA`, the E-score was 0.0231.
The E-score of `CACAACCG` is reported as 0.0114.
With `GACTGATC` the E-score was -0.00341.
`CACCACGG` has an E-score of 0.0706.
With `CCTGTCCG` the E-score was 0.0645.
`ACTCACGG` has an E-score of 0.176.
For `AACAGTCT`, the E-score was -0.0289.
`CTAGTTCA` has an E-score of 0.0226.
`CAGTTTAG` has an E-score of -0.202.
`CAACCCCA` has an E-score of -0.145.
`GTAGACTA` gave an E-score of -0.0728.
For `CTTTTATC`, the E-score was -0.067.
`AGGACTGA` gave an E-score of -0.178.
With `AAGAGCTC` the E-score was -0.112.

Set 4
Target: RNA binding protein fox-1 homolog 2, RRM domain, GST-SBP tag (RBFOX2, Homo sapiens, UniProt O43251-10, residues 100-194)
Method: RNA Bind-n-Seq
Molecule type: RNA
Sample: in vitro
Tested at: 365 nM
Notes: natural RNA segment, single round, ends assumed
Baseline: no-protein control
Direction: higher = stronger binding
All sequences stand within: GGGAGUUCUACAGUCCGACGAUC … UGGAAUUCUCGGGUGCCAA
Residues (chain): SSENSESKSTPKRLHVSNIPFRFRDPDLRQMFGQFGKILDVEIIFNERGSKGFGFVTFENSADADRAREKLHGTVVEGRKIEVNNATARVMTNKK
`GAGCACCCCCUGCUCCACCAGCAGCAUGGCUAGUGCCCAGCCUGGAGCCUCGGGGAGCCCCCCAGCCAGCCCUUGCCCUGCAGGAGAGACCGAGCAGCCACAAGCUGGAA` — result for “RBNS enrichment (R)”: 0.427.
For `UCAAAGCCCAGGUAUCUCUCAGAUCUGCUGCCUGAGAAAUAAGCUCCUUUAUCAGUUAGCUGUUUUAUCAUUAGGAUACAAGACAGCCCAGUGUCAUCAACAGUGAGCAA`, “RBNS enrichment (R)” read 0.325.
`UGUCUUUUCAGUGCAGGCUGUAACAACCCACUCAGGAGACAGUGAGAGUGAAAAGGUAUUAAGGAAAAAGCCCCCAGCGGCACUAUGGGGGCUCCCUGGCGCAUGCCUGC`: “RBNS enrichment (R)” 1.45.
Under “RBNS enrichment (R)”, `CUUCCCUUCAGCAGCCUCCCAGACCUCCCCAUUCUUCCAGGAUGCUGUCUGCCAGGUCACCACUCUGAUACCCAGCGUUCUCUGGUUGCUCUCUGUUUCCAGUGAUUAAA` is recorded as 0.372.
`UAAAGGGGGUGUUAAUCGGUGUAAAUCGCUGUUUGGAUUUCCUGAUUUUAUAACAGGGCGGCUGGUUAAUAUCUCACACAGUUUAAAAAAUCAGCCCCUAAUUUCUCCAU`: “RBNS enrichment (R)” 0.496.
`UCUUGCACACAAUUCCUUUGAAAUUACAUUGACAGCCAGGAGACAAAGGAGAGAACUGUUAACUAGCAGAAUGCAUUUUAUAGAGCUCUGGCUAACCGCCUCUUAGCCCA`: “RBNS enrichment (R)” 1.01.
Under “RBNS enrichment (R)”, `UUUCUCUGGAGGCAUUUUUGGGAAUGUACGUGUAAUAGGCUCUGCUUUGUAUACAGGAGAUAAUACCACAUCAUCGGUUAUCUCCAAACUCCAGUCUUCUCUCAACUGCC` is recorded as 0.323.
For `AGAUGCGAUUGGGCGGUACCACCAGUGUGCAACCAUCCAGCUGGAUUUCCAGUUGCCCAUCAGAUUUAAUCUUACUUAUGUAAGGCAUGAUGGUGAUGAUAAGAAAAGGC`, “RBNS enrichment (R)” read 0.174.

For quick reference, copied from above (set 1):
For `2'F-ANA at 1 3 6 8 10 12`, “mean fluorescence intensity” read 119 a.u.
For `2'F-ANA at 1 3 4 5 6 9 10 12 13 14 15`, “mean fluorescence intensity” read 66 a.u.
`2'F-ANA at 1 2 3 4 5 6 11 14 15`: “mean fluorescence intensity” 66.3 a.u.
Under “mean fluorescence intensity”, `2'F-ANA at 2 4 6 7 8 9 11 12 14 15` is recorded as 101 a.u.
`2'F-ANA at 1 4 8 9 10 13 14`: “mean fluorescence intensity” 51 a.u.
Under “mean fluorescence intensity”, `2'F-ANA at 4 7 9 10 11 12 13 14 15` is recorded as 60.7 a.u.
`2'F-ANA at 8 9 10 11 13 15`: “mean fluorescence intensity” 120 a.u.
